Experimental data of several laboratories.
Parts stem from different laboratories: compare values within a part only.

Series 1
Target: Histone acetyltransferase KAT6A, both winged helices, GST fusion (KAT6A, Homo sapiens, UniProt Q92794, residues 1-181)
Method: protein binding microarray
Molecule type: double-stranded DNA, one strand shown
Sample: in vitro
Tested at: not given
Setting: 8-mer, flanks averaged, mean of 2 arrays, mostly near background
Reference: not given
Reading: higher = stronger binding
Measurement: E-score
Residues (chain): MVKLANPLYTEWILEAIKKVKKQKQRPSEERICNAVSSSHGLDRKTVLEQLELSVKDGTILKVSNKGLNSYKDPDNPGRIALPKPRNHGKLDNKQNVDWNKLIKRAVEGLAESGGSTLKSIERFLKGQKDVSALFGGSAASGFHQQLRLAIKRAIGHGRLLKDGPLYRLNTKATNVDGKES
CTCGCATC: 0.0568
AGATCAGG: -0.153
ATAGCGTC: 0.21
CGGCCGAA: 0.291
ACAATTCC: -0.0974
GACAAGTC: -0.0885
AAGGCCAT: -0.077

Series 2
Target: Ras GTPase-activating protein-binding protein 1, full length (G3BP1, Homo sapiens, UniProt Q13283)
Chain of UniProt Q13283 (whole entry, looked up): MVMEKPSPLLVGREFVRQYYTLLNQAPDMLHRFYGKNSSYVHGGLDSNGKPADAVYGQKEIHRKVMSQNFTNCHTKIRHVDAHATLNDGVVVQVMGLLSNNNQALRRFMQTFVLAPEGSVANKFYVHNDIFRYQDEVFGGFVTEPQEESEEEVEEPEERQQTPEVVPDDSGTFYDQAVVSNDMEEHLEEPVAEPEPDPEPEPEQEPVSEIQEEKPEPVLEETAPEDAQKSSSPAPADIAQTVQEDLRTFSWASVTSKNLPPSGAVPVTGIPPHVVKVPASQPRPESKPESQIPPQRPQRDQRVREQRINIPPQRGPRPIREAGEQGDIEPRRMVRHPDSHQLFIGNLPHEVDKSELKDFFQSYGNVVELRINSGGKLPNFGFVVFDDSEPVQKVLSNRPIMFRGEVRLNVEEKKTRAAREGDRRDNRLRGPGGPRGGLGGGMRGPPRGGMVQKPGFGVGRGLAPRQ
Method: RNA Bind-n-Seq
Molecule type: RNA
Sample: in vitro
Tested at: 200 nM
Setting: whole 134-nt RNA, ends assumed
With: 150 mM LiCl
Reference: input library
Reading: higher = stronger binding
Measurement: log2 enrichment
Library: 7-deaza-guanosine replaces G
GGGAGUUCUACAGUCCGACGAUCCACAGACAACACGCACCCACACAGACACAGAGGGAAGGGGUUGGGAUGGGGACAGGGUGGACAGCAGGGCGGGGUAGGACCCCAGCCCCUUGGAAUUCUCGGGUGUCAAGG: -1.73
GGGAGUUCUACAGUCCGACGAUCACCCUGCAGGUGGGCAUCUUUGGGAAGUGGGGCAAGGGGGGGAUAGGGAGGGGGGUAACACUUUGGGAACAGGUGGUCCCAGGUCGUUUCUGGAAUUCUCGGGUGUCAAGG: 0.203
GGGAGUUCUACAGUCCGACGAUCUGGGAGGUGGAUUUUGUUUAUUUUUUUAGCUCAUUUCCAGGGGUGGGAAUUUUUUUUUAAUAUGUGUCAUGAGUAAAGUUGUUUUUGAAAUGGAAUUCUCGGGUGUCAAGG: 0.414

Series 3
Target: Phosphate system positive regulatory protein PHO4, full length, GST-tagged (PHO4, Saccharomyces cerevisiae, UniProt P07270, residues 1-312)
Method: competition protein-binding microarray
Molecule type: double-stranded DNA, one strand shown
Sample: in vitro
Tested at: 2 µM
Setting: whole 60-bp probe, lowest competitor level
With: Cbf1 competitor, 0.05 µM
Reading: higher = stronger binding
Measurement: fluorescence intensity
Shared flanks, not repeated: … GTCTTGATTCGCTTGACGCTGCTG
Target sequence (chain): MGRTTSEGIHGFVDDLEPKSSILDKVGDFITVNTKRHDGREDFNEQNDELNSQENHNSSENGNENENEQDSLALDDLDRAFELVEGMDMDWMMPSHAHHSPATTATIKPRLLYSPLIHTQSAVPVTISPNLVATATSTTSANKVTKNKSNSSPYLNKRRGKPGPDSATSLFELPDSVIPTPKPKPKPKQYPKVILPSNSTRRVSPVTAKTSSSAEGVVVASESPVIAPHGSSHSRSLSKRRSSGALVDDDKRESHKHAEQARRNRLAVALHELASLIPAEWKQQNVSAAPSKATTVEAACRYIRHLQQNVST
TCTGTAACTTAATCACACGTGCAAAGTCTCTTTTAC: 20000 a.u.
CGGGGTTAAGTTTGAGCTGTGGGTGGCTTGCAGCAG: 4390 a.u.
TGATCGCGCAGGATGGGACAATTAAACGATCTTTGC: 3240 a.u.
TGGCGGTTAGTCCTCTGCGTGATGGATCGTTGTAAT: 5700 a.u.
CTTTCCCGATCTTGGGCGGTGGGTGTAGCACATTTG: 5090 a.u.
GGGCCCGCCCTGGGCCACGTGTTGCCTGCGGACCCG: 16800 a.u.

Further values, each from its own experiment
PhoQ, residues 284 288 289 292 302 303 TAVSDG
fold induction (PhoP, residues 12 14 15 18 19 SQCLL (Escherichia coli, UniProt P23836); Sort-seq, item: YFP reporter; E. coli; PhoQ-PhoP variant library, with: 10 µM Mg2+; reference: high Mg2+ state, higher = stronger signaling): 11

Excerpt of the above (series 1):
CTCGCATC: 0.0568
CGGCCGAA: 0.291
